# Measured values from different studies.
# Protocols differ between the studies behind these lines. Values joined by “and” are separate records of one study, mostly repeats; a detail may differ. ± gives the spread as reported.
# AKT1: RAC-alpha serine/threonine-protein kinase (AKT1, Homo sapiens, UniProt P31749)
# AKT1 S473D: RAC-alpha serine/threonine-protein kinase (AKT1, Homo sapiens, UniProt P31749, S473D)
Structure (SMILES),target,test,system,setting,scale,endpoint,result
CN1CC[C@@H](COc2cnc(C#N)cc2-c2ccn3nc(NC(=O)C4CC4)cc3c2)C1,AKT1,"enzyme activity, inhibitor",,1 µM,,inhibition,5%
c1ccc2c(Nc3cc(C4CCC4)[nH]n3)nc(Nc3ccc4nc[nH]c4c3)nc2c1,AKT1,"enzyme activity, inhibitor",,0.25 µM,,remaining activity,103%
O=[N+]([O-])c1ccc(Cn2cc(Cn3cc(CO)nn3)nn2)cc1,"RAC-alpha serine/threonine-protein kinase, PH domain (AKT1, Homo sapiens, UniProt P31749)","PIP3 binding to PH domain, SPR",,50 µM,,inhibition,52 ± 5%
COc1cc(Nc2nccc(-c3cnn4nc(OC)ccc34)n2)cc(C(F)(F)F)c1,AKT1,"binding, competition with immobilised ligand",,1 µM,,remaining binding,100%
CS(=O)(=O)Nc1cccc(-c2csc3cnc(Nc4ccc(N5CCN(CCCCCOc6cccc7c6C(=O)N(C6CCC(=O)NC6=O)C7=O)CC5)cc4)nc23)c1 (centres unmarked),AKT1,"probe labelling, inhibitor, KiNativ chemoproteomics",MOLT-4,1 µM,,inhibition,-0.834%
C=C1CCCCCCCCCC(CO)C1=O (centres unmarked),AKT1,"cell-free assay, competition with immobilised ligand",,10 µM,,remaining binding,100%
Cc1ccc(-c2c(/C=C(\C#N)C(=O)NC(C)C)n(CCCO)c3ncnc(N)c23)cc1,AKT1,"cell-free assay, competition with immobilised ligand",,1 µM,,remaining binding,100%
CC(=O)N1c2ccc(-c3ccc(CNC(=O)c4cn5cc(-c6cnc(N)nc6)nc(N6CCOCC6)c5n4)cc3)cc2CC[C@@H]1C,AKT1,KINOMEscan,,10 µM,,remaining binding,98%
CC(C)=CC1OC(C)(C)C2C=C3C(=O)C(Cl)=CC(O)C3C3C(O)C4OC4C(=O)C132 (centres unmarked),AKT1,"cell-free assay, competition with immobilised ligand",,10 µM,,remaining binding,100%
COc1ccc(C(=O)/C=C/c2ccccc2-c2c[nH]c3ccc(C#N)cc23)c(O)c1,AKT1,"enzyme activity, inhibitor",,20 µM,,inhibition,14%
C[C@H]1CN(C(=O)c2cn(-c3ccnc(N)n3)c3cc(C#CC4(O)CCCCC4)ccc23)CCN1,AKT1,"enzyme activity, inhibitor, FRET",,1 µM,,inhibition,11%
CCn1cc(C(=O)O)c(=O)c2c(N)c(F)c(NC3CCCCC3)cc21,AKT1,kinase activity,,"0.1 µM, with: ATP at Km",,inhibition,0.9%
Cc1ccc(C)c(-c2ccc3nc(NC(=O)C4CCCCC4)nn3c2)c1,AKT1 S473D,enzyme activity,,10 µM,,remaining activity,98%
COc1c(OCCCN2CCOCC2)ccc2c1N=C(NC(=O)c1cnc(N)nc1)N1CCN=C21,AKT1,"kinase activity, inhibitor",,1 µM,reference: untreated control,remaining activity,92%
CN1CCN(Cc2ccc(-c3ccc(CO[C@H]4CCC[C@@H]4NC(=O)c4cc(-c5cnn(C)c5)cnc4N)cc3)cc2)CC1,AKT1,"enzyme activity, inhibitor",,0.1 µM,,inhibition,0%
COCC12C(=O)NC3C4(C(OC)CC1O)C1CC5(O)C(OC)C(O)C(OC(C)=O)(C1C5OC(=O)c1ccccc1)C3(O)C(OC)C24 (centres unmarked),AKT1,"kinase activity, inhibitor, ProQinase kinase profiling",,25 µM,reference: control,remaining activity,108% and 107%
C=CC(=O)N1Cc2nc(-c3cc(-c4cc(Cl)cnc4Cl)c(F)cc3F)n(-c3ccncn3)c2C1,AKT1,"cell-free assay, inhibitor",,1 µM,,inhibition,-7.3%
CNC1C[S+]2CC[S+]3CC[S+](C1)[Ru-4]321([N]=C=S)[n]2c3ccc(OC)cc3c3c4c(c5cc(F)c[n+]1c5c32)C(=O)NC4=O (centres unmarked),AKT1,KinomeScan,,0.1 µM,reference: untreated,remaining binding,99%
CN1CCN(Cc2ccc(NC(=O)c3cccc(C#Cc4cnc(N)c5ncccc45)c3)cc2C(F)(F)F)CC1,AKT1,"cell-free assay, competition with immobilised ligand",,0.5 µM,,remaining binding,100%
Cc1cnc2nc1Nc1cccc(c1)COC/C=C/COCc1cc(ccc1OCCN1CCOCC1)N2,AKT1,binding,,0.1 µM,,remaining binding,100%
NC(=O)[C@@H](O)C[C@H]1CCc2sc3ncnc(O[C@H]4CC[C@H](N5CCOCC5)CC4)c3c21,AKT1,"enzyme activity, inhibitor",,10 µM,,inhibition,-1%
Cc1cccc(O[C@H]2CCC[C@@H](C(C)CNCc3ccncc3)C2)c1 (relative stereo),AKT1,"enzyme activity, inhibitor",,1 µM,,inhibition,3%
COc1ccc(NC(=O)Nc2ccc3c(c2)C(=O)N(C(C)CO)CC(C)C(CN(C)Cc2ccc4c(c2)OCO4)O3)cc1 (centres unmarked),AKT1,"binding, competition with immobilised ligand",,10 µM,,remaining binding,87%
C=CC(=O)Nc1cccc(-c2cnc3[nH]cc(C(=O)NC(C)(C)C)c3n2)c1,AKT1,kinase activity,,0.1 µM,,inhibition,-1% and 1%
Cc1cccc(-c2ccc3nc(NC(=O)C4CCCO4)nn3c2)c1 (centres unmarked),AKT1 S473D,enzyme activity,,10 µM,,remaining activity,93%
CCN1CCN(Cc2ccc(C(=O)Nc3ccc(C)c(NCc4cnc5[nH]ccc5c4OC)c3)cc2C(F)(F)F)CC1,AKT1,"binding, competition with immobilised ligand",,1 µM,,remaining binding,100%

# Repeated from above:
Structure (SMILES),target,test,system,setting,scale,endpoint,result
CNC1C[S+]2CC[S+]3CC[S+](C1)[Ru-4]321([N]=C=S)[n]2c3ccc(OC)cc3c3c4c(c5cc(F)c[n+]1c5c32)C(=O)NC4=O (centres unmarked),AKT1,KinomeScan,,0.1 µM,reference: untreated,remaining binding,99%
CN1CCN(Cc2ccc(NC(=O)c3cccc(C#Cc4cnc(N)c5ncccc45)c3)cc2C(F)(F)F)CC1,AKT1,"cell-free assay, competition with immobilised ligand",,0.5 µM,,remaining binding,100%
